Results of several laboratories.
Protocols differ between the studies behind these lines.
WDR76: WDR76 (Homo sapiens, UniProt Q9H967)
Chain of UniProt Q9Y224 (whole entry, looked up): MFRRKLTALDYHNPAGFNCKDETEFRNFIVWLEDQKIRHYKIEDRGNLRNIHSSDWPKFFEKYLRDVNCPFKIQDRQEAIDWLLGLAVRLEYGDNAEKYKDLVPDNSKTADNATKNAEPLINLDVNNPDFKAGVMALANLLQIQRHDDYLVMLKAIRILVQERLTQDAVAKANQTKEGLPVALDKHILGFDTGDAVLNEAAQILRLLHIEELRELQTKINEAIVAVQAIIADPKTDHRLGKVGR
Chain of UniProt Q99996 (whole entry, looked up): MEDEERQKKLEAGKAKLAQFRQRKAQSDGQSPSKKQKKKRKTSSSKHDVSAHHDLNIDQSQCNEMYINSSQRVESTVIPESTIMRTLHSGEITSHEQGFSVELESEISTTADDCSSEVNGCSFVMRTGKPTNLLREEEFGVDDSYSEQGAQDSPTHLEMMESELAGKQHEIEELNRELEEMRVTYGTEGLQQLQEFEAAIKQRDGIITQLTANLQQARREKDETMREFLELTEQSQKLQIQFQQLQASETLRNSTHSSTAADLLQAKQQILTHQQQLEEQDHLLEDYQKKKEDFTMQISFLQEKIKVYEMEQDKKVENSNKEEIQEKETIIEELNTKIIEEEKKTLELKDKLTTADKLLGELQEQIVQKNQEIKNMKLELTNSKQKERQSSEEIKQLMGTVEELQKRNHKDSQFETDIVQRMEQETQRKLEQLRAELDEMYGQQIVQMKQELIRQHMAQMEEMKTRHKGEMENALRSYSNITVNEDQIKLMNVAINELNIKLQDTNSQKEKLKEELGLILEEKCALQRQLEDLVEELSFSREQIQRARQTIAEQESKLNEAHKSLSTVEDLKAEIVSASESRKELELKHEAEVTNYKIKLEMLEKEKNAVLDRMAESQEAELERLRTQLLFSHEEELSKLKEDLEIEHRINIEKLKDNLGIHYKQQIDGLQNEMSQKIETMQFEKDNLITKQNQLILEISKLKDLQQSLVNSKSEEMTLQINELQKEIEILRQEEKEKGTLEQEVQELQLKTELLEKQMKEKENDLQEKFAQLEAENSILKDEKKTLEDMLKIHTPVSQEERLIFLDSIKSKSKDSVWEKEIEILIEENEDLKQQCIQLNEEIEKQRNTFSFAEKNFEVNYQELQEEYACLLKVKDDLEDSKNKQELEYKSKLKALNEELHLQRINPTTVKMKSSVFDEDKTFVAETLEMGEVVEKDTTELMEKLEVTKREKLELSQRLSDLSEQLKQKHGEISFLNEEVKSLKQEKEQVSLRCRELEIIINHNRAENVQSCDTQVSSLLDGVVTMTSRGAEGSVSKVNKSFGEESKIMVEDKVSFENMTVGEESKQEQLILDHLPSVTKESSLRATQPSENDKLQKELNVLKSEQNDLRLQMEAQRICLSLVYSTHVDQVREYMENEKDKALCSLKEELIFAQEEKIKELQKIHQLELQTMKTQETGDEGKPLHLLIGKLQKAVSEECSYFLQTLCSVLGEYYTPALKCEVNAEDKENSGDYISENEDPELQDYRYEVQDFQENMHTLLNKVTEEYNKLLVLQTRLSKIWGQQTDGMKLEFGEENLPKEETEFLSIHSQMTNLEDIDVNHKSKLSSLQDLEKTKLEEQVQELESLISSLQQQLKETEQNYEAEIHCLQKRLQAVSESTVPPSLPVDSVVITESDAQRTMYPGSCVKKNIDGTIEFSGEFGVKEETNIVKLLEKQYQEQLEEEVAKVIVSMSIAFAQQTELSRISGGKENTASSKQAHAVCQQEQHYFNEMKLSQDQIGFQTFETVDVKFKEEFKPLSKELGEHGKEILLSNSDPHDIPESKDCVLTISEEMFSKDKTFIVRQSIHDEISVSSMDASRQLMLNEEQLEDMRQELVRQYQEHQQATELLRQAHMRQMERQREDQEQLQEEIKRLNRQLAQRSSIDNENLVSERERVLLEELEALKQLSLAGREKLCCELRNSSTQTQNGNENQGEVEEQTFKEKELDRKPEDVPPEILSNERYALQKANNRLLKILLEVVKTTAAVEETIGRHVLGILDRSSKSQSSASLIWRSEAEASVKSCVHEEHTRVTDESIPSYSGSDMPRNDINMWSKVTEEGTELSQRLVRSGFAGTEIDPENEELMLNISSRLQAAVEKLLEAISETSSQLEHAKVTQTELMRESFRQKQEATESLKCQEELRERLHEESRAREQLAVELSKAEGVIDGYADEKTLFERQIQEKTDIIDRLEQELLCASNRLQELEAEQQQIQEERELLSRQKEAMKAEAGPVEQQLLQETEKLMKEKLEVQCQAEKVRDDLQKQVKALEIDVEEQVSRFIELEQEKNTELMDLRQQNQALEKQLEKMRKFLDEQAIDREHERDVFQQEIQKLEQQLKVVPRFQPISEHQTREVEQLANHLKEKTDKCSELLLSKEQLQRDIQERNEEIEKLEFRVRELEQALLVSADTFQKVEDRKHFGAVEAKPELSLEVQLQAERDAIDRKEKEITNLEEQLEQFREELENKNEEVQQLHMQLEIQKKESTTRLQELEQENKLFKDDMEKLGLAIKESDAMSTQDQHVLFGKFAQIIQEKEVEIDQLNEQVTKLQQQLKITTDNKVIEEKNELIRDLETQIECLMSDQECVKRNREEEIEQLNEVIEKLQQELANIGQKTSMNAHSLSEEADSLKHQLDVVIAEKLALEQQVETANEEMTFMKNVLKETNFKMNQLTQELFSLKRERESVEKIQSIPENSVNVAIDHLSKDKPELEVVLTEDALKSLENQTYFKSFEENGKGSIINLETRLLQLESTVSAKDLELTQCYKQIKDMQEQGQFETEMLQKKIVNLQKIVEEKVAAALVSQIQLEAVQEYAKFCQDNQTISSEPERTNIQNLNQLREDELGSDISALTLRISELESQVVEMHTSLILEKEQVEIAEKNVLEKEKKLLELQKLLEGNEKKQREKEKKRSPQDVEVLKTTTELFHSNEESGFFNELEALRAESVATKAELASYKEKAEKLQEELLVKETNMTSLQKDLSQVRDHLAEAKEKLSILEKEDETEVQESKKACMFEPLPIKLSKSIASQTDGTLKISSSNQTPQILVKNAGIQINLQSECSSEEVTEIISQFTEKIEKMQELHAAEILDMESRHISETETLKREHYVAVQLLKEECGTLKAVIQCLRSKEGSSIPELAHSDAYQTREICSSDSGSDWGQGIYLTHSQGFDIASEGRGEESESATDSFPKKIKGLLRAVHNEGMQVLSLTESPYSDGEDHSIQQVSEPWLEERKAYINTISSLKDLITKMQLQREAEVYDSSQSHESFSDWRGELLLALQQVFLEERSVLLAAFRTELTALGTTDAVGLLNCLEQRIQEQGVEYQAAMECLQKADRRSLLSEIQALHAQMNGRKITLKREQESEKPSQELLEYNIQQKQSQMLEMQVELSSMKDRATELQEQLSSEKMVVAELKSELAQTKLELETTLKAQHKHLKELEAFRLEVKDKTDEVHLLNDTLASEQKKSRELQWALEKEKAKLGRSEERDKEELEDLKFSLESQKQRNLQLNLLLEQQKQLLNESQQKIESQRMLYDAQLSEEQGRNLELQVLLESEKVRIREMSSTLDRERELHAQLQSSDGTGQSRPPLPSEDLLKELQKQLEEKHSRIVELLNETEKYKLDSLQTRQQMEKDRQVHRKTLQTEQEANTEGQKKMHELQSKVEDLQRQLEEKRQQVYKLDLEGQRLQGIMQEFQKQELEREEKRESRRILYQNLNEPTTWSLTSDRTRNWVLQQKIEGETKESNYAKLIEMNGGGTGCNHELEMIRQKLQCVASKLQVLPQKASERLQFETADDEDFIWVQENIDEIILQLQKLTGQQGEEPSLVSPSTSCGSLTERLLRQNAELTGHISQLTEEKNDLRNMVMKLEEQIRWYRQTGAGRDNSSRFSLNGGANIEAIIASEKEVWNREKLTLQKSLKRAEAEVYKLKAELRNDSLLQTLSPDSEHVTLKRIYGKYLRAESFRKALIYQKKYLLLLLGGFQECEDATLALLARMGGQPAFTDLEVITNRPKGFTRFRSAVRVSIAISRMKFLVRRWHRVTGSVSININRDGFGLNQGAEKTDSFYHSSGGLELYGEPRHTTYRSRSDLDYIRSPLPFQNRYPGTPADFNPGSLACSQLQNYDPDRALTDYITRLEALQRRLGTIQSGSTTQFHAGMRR
Chain of UniProt Q9Y3I0 (whole entry, looked up): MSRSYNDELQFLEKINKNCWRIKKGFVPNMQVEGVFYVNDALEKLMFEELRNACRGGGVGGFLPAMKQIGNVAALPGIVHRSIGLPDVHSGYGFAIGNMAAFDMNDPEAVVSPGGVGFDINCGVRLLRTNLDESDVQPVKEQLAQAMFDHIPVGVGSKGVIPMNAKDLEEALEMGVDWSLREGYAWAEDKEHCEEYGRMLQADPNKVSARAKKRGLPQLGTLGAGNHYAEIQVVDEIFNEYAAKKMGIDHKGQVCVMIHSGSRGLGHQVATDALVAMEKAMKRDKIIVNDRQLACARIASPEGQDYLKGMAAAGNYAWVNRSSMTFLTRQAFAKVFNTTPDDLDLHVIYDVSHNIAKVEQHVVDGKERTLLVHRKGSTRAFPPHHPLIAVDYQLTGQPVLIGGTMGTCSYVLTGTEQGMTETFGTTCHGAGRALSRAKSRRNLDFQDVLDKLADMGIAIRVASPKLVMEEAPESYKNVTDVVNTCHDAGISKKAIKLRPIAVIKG
Chain of UniProt P05783 (whole entry, looked up): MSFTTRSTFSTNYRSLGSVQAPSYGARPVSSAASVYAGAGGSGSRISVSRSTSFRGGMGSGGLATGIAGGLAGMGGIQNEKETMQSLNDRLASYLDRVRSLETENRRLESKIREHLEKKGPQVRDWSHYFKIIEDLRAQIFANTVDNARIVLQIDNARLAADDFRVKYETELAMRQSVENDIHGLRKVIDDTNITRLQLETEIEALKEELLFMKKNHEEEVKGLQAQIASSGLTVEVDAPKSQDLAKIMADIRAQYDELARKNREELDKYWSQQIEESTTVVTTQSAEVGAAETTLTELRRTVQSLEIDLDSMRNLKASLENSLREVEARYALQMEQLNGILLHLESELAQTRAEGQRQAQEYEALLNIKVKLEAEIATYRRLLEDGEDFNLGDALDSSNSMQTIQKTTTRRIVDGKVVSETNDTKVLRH

| Molecule | tested on | test | system | setting | scale | measurement | result |
| --- | --- | --- | --- | --- | --- | --- | --- |
| SPTB (Homo sapiens, UniProt P11277) | GDI1 (Homo sapiens, UniProt P31150) | cross-linking MS |  | together with: DSSO or DMTMM |  | cross-linked residues | E515 to K112 |
| RTRAF (Homo sapiens, UniProt Q9Y224) | RTCB (Homo sapiens, UniProt Q9Y3I0) | cross-linking MS | cells | together with: iqPIR |  | cross-linked residues | K185 to K492 |
| FLOT1 (Homo sapiens, UniProt O75955) | FLOT2 (Homo sapiens, UniProt Q14254) | cross-linking MS | cells | together with: BDP-NHP |  | cross-linked residues | K51 to K100 |
| GMPS (Homo sapiens, UniProt P49915) | BAHCC1 (Homo sapiens, UniProt Q9P281) | cross-linking MS |  | together with: DSSO |  | cross-linked residues | K671 to K247 |
| COL6A3 (Homo sapiens, UniProt P12111) | HBB (Homo sapiens, UniProt P68871) | cross-linking MS |  | together with: DSSO or DMTMM |  | cross-linked residues | K1913 to E122 |
| EEF1G (Homo sapiens, UniProt P26641) | EEF1D (Homo sapiens, UniProt P29692) | cross-linking MS | cells | together with: BDP-NHP |  | cross-linked residues | K219 to K17 |
| FGB (Homo sapiens, UniProt P02675) | RANBP17 (Homo sapiens, UniProt Q9H2T7) | cross-linking MS |  | together with: DSSO or DMTMM |  | cross-linked residues | K264 to D926 |
| PFKM (Homo sapiens, UniProt P08237) | PFKP (Homo sapiens, UniProt Q01813) | cross-linking MS | cells | together with: BDP-NHP |  | cross-linked residues | K727 to K736 |
| APOA1 (Homo sapiens, UniProt P02647) | APOC1 (Homo sapiens, UniProt P02654) | cross-linking MS |  | together with: DSSO |  | cross-linked residues | K232 to K56 |
| PPIA (Homo sapiens, UniProt P62937) | PNN (Homo sapiens, UniProt Q9H307) | cross-linking MS | cells | together with: iqPIR |  | cross-linked residues | K125 to K676 |
| DNAJA2 (Homo sapiens, UniProt O60884) | SLC25A5 (Homo sapiens, UniProt P05141) | cross-linking MS | purified complex | together with: DSSO |  | cross-linked residues | K212 to K147 |
| PLCH2 (Homo sapiens, UniProt O75038) | HNRNPK (Homo sapiens, UniProt P61978) | cross-linking MS |  | together with: DSSO or DMTMM |  | cross-linked residues | M1 to D334 |
| MYH9 (Homo sapiens, UniProt P35579) | MYL6 (Homo sapiens, UniProt P60660) | cross-linking MS | cells | together with: iqPIR |  | cross-linked residues | K833 to K81 |
| VMRLQSETSV | human SCRIB PDZ3-4 tandem (MBP fusion) | automated holdup | peptide, crude extract | concentration not given, corrected by standard peak, unit not given | relative to: biotin control resin, higher = stronger binding | binding intensity | 0.813 |
| HSPA8 (Homo sapiens, UniProt P11142) | NIPSNAP1 (Homo sapiens, UniProt Q9BPW8) | cross-linking MS | cells | together with: iqPIR |  | cross-linked residues | K325 to K51 |
| colistin | Morganella morganii | broth microdilution | clinical isolate RKI-No 659/13 |  |  | MIC | > 64 µg/mL |
| CCT6A (Homo sapiens, UniProt P40227) | CCT3 (Homo sapiens, UniProt P49368) | cross-linking MS |  | together with: DSSO |  | cross-linked residues | K530 to K78 |
| Peginesatide | UT7/EPO | RT-qPCR, refers to: PHLDA1 |  | concentration not given, 90 min, normalized to HPRT1 | relative to: vehicle | mRNA level | 3.6 fold |

| Molecule | tested on | test | system | setting | scale | measurement | result |
| --- | --- | --- | --- | --- | --- | --- | --- |
| NUP205 (Homo sapiens, UniProt Q92621) | MYO5C (Homo sapiens, UniProt Q9NQX4) | cross-linking MS | cells | together with: iqPIR |  | cross-linked residues | K1271 to K1242 |
| ENO1 (Homo sapiens, UniProt P06733) | MDH1 (Homo sapiens, UniProt P40925) | cross-linking MS | cells | together with: BDP-NHP |  | cross-linked residues | K80 to K110 |
| QSARYRDTEL | human SCRIB PDZ3-4 tandem (MBP fusion) | surface plasmon resonance | peptide | concentration not given | higher = stronger binding | normalised SPR binding response | 121 normalised RU |
| GAPDH (Homo sapiens, UniProt P04406) | MYBBP1A (Homo sapiens, UniProt Q9BQG0) | cross-linking MS | cells | together with: BDP-NHP |  | cross-linked residues | K259 to K277 |
| FGA (Homo sapiens, UniProt P02671) | PPP1R26 (Homo sapiens, UniProt Q5T8A7) | cross-linking MS |  | together with: DSSO |  | cross-linked residues | K89 to K265 |
| PLEC (Homo sapiens, UniProt Q15149) | SKIC2 (Homo sapiens, UniProt Q15477) | cross-linking MS | cells | together with: BDP-NHP |  | cross-linked residues | K2189 to K791 |
| SLC4A1 (Homo sapiens, UniProt P02730) | CLIP2 (Homo sapiens, UniProt Q9UDT6) | cross-linking MS |  | together with: DSSO or DMTMM |  | cross-linked residues | D369 to K680 |
| FGG (Homo sapiens, UniProt P02679) | UACA (Homo sapiens, UniProt Q9BZF9) | cross-linking MS |  | together with: DSSO |  | cross-linked residues | K121 to K784 |
| CSDE1 (Homo sapiens, UniProt O75534) | STRAP (Homo sapiens, UniProt Q9Y3F4) | cross-linking MS | cells | together with: BDP-NHP |  | cross-linked residues | K758 to K262 |
| KRT18 (Homo sapiens, UniProt P05783) | AKAP9 (Homo sapiens, UniProt Q99996) | cross-linking MS | cells | together with: iqPIR |  | cross-linked residues | K118 to K949 |
| HBE1 (Homo sapiens, UniProt P02100) | SLC4A1 (Homo sapiens, UniProt P02730) | cross-linking MS |  | together with: DSSO or DMTMM |  | cross-linked residues | M1 to E13 |
| MTA2 (Homo sapiens, UniProt O94776) | HSPA5 (Homo sapiens, UniProt P11021) | cross-linking MS | cells | together with: iqPIR |  | cross-linked residues | K501 to K326 |
| FGB (Homo sapiens, UniProt P02675) | CDK12 (Homo sapiens, UniProt Q9NYV4) | cross-linking MS |  | together with: DSSO |  | cross-linked residues | K83 to K414 |
| PDCD4 (Homo sapiens, UniProt Q53EL6) | WDR76 | cross-linking MS |  | together with: DSSO |  | cross-linked residues | K115 to K442 |
| ALB (Homo sapiens, UniProt P02768) | CCDC63 (Homo sapiens, UniProt Q8NA47) | cross-linking MS |  | together with: DSSO |  | cross-linked residues | K543 to K140 |
| CRACDL (Homo sapiens, UniProt Q6NV74) | WDR76 | cross-linking MS |  | together with: DSSO |  | cross-linked residues | K962 to K10 |
| PNP (Homo sapiens, UniProt P00491) | Hemoglobin subunit alpha (Homo sapiens, UniProt P69905) | cross-linking MS |  | together with: DSSO or DMTMM |  | cross-linked residues | K179 to D76 |
| IQGAP1 (Homo sapiens, UniProt P46940) | NIBAN2 (Homo sapiens, UniProt Q96TA1) | cross-linking MS | cells | together with: iqPIR |  | cross-linked residues | K1230 to K554 |

Some of these lines once more:
| Molecule | tested on | test | system | setting | scale | measurement | result |
| --- | --- | --- | --- | --- | --- | --- | --- |
| PFKM (Homo sapiens, UniProt P08237) | PFKP (Homo sapiens, UniProt Q01813) | cross-linking MS | cells | together with: BDP-NHP |  | cross-linked residues | K727 to K736 |
| PPIA (Homo sapiens, UniProt P62937) | PNN (Homo sapiens, UniProt Q9H307) | cross-linking MS | cells | together with: iqPIR |  | cross-linked residues | K125 to K676 |
| VMRLQSETSV | human SCRIB PDZ3-4 tandem (MBP fusion) | automated holdup | peptide, crude extract | concentration not given, corrected by standard peak, unit not given | relative to: biotin control resin, higher = stronger binding | binding intensity | 0.813 |
